Experimental data gathered from unrelated publications.
Numbered parts are unrelated; each lists some results of a single study.

Sample 1 — cell line: HEK-293T; read-out: pseudovirus infection; organism: VSV pseudotyped with SARS-CoV-2 spike; concentration: 10 µM; time: 16 h; reference: vehicle-treated
SMILES	GFP-positive cells [%]
C[C@]12Cc3c[nH]nc3C[C@@H]1CC[C@@H]1[C@@H]2CC[C@@]2(C)[C@H]1CC[C@]2(C)O	134
CN(C)[C@@H]1C(O)=C(C(N)=O)C(=O)[C@@]2(O)C(O)=C3C(=O)c4c(O)ccc(Cl)c4[C@@H](O)[C@H]3C[C@@H]12	66.6
CCn1cc(C(=O)O)c(=O)c2cc(F)c(N3CCNCC3)nc21	84.6

Sample 2 — method: RNA Bind-n-Seq; form: RNA; medium: in vitro; concentration: 200 nM; setting: whole 134-nt RNA, ends assumed; together with: 150 mM LiCl; reference: input library; reading: higher = stronger binding; all molecules: 7-deaza-guanosine replaces G
Target: Fragile X messenger ribonucleoprotein 1, C-terminal low-complexity region (Fmr1, Mus musculus, UniProt P35922)
Shared flanks, not repeated: GGGAGUUCUACAGUCCGACGAUC … UGGAAUUCUCGGGUGUCAAGG
Sequence	log2 enrichment
UGGCCCUGGUGGCAUGCGGGGAGGAAGAGGUGGCCUCAUGGAUCGUGGUGGUCCCGGUUGAAUGUUCAGAGGUGGCCGUGGUGGAGACAG	-0.551
ACCAUGCAGGUGGGCAUCUUUGGGAAGUGGGGCAAGGGGGGGAUAGGGAGGGGGGUAACACUUUGGGAACAGGUGUUCCCAGGUCGUUUC	1.4
UCCUGUGCUACACAUCGUAUGUACCGAAUCGGGAAAAAGGGAAAAAGGGGAAAAAGGGGAAAGUAUUAUGUUACGCCGUUCGGAUCUGCA	-0.72
CACAGACAACACGCACCCACACAGACACAGAGGGAAGGGGUUGGGAUGGGGACAGGGUGCACAGCAGGGCGGGAAAGGACCCCAGCCCCU	2.02
UCAAGUCCUGUGCUACACAUCGUAUGUACCGAAUCGGAAAGGAGGAAAAAAAGGAAAGUAUUAUGUUACGCCGUUCGGAUCUGCACUUCC	-0.344
UCCUGUGCUACACAUCGUAUGUACCGAAUCGGCCCCCCGGCCCCCCGGGCCCCCCGGGGAAAGUAUUAUGUUACGCCGUUCGGAUCUGCA	0.776
CACAGACAACACGCACCCACACAGACAAAAAGGGAAGGGGUUGGGAUGGGGACAGGGUGCACAGCAGGGCGGGGUAGGACCCCAGCCCCU	0.101

Sample 3 — read-out: enzyme activity; mode: inhibitor; concentration: 20 µM
Target: Replicase polyprotein 1ab, polymerase (rep, Severe acute respiratory syndrome coronavirus 2, UniProt P0DTD1)
SMILES	inhibition [%]
COc1ccc2cccc(N3CCN(CCNC(=O)c4ccc(F)cc4)CC3)c2c1	-1.85
Cn1c(=O)[nH]c2ncn(C)c2c1=O	0.02
Cc1ccc(/N=C/N(C)/C=N/c2ccc(C)cc2C)c(C)c1	-0.68
COC(=O)CC1CC(c2ccc(O)cc2)=NO1 (stereo not drawn)	-2.15
CCOc1nc2cccc(C(=O)OC(C)OC(=O)OC3CCCCC3)c2n1Cc1ccc(-c2ccccc2-c2nn[nH]n2)cc1 (stereo not drawn)	-8.07
CN(C)[C@@H](CCOc1cccc2ccccc12)c1ccccc1	-7.22
COc1oc(=O)c2cc(N)ccc2c1Cl	0.95
Cc1cccc(Oc2nc3c(C)cccn3c(=O)c2/C=C(\C#N)c2nc3ccccc3s2)c1	2.43
CC(=O)Nc1ncc([N+](=O)[O-])s1	-6.05
Cc1cn([C@H]2C=C[C@@H](CO)O2)c(=O)[nH]c1=O	-5.5
CC(C)(Oc1ccc(CCNC(=O)c2ccc(Cl)cc2)cc1)C(=O)O	-6.03
COC(=O)C1=C(C)NC(C)=C(C(=O)OCC(C)C)C1c1ccccc1[N+](=O)[O-] (stereo not drawn)	1.45
CC(C)n1nc(C#Cc2ccccc2)c2c(N)ncnc21	1.95
O=C(O)c1c2ccccc2cc2ccccc12	-0.96
Fc1ccc(-c2c3cccc(C(F)(F)F)c3nn2Cc2ccc(F)cc2Cl)cc1	-2.59
CCC(CO)(C(=O)OC1CC2CCC(C1)[N+]2(C)C)c1ccccc1 (stereo not drawn)	2.06
O=C(/C=C/c1ccc(O)c2c1[C@H](C(=O)O[C@H](Cc1ccc(O)c(O)c1)C(=O)O)[C@@H](c1ccc(O)c(O)c1)O2)O[C@H](Cc1ccc(O)c(O)c1)C(=O)O	69.1
c1ccc2nc(C3=NCCN3)cnc2c1	0.54
CCCC(C(=O)OCCN(CC)CC)(c1ccccc1)c1ccccc1	-10.1
CC(C)(C)C(O)/C=C/c1ccc2c(c1)OCO2 (stereo not drawn)	0.04
O=c1[nH]nc2c3c(cccc13)N=C(CN1Cc3ccccc3C1)N2	0.16
CCC(C)(C)c1ccc(CC(C)CN2C[C@@H](C)O[C@@H](C)C2)cc1 (stereo partly drawn)	-0.05
COc1cc(/C=C/c2ccc(O)cc2)cc(OC)c1	2.58
CCCNS(=O)(=O)Nc1ncnc(OCCOc2ncc(Br)cn2)c1-c1ccc(Br)cc1	2.77
S=c1[nH]cnc2nc[nH]c12	27.7

Sample 4 — organism: SARS-CoV-2; read-out: cytopathic effect; cell line: Vero E6; concentration: 10 µM
SMILES	inhibition [%]
CC(=O)[O][Pt]([NH2])([Cl])([Cl])([NH]C1CCCCC1)[O]C(C)=O	-17.4
CCOC(=O)Cc1ccc(-c2ccccc2)cc1	-5.7
CNc1nc(Nc2cn(C(C)(C)C#N)nc2C)ncc1C(F)(F)F	-1.3

Sample 5 — method: RNA Bind-n-Seq; form: RNA; medium: in vitro; concentration: 365 nM; reference: no-protein control; reading: higher = stronger binding
Target: RNA binding protein fox-1 homolog 2, RRM domain, GST-SBP tag (RBFOX2, Homo sapiens, UniProt O43251-10, residues 100-194)
Setting: natural RNA segment, single round, ends assumed
Shared flanks, not repeated: GGGAGUUCUACAGUCCGACGAUC … UGGAAUUCUCGGGUGCCAA
Construct (chain): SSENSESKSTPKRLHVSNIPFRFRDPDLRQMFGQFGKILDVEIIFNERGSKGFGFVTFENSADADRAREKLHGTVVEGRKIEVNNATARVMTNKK
Sequence	RBNS enrichment (R)
UGAAGAGCAUGGAGGGGGAGCCUCAGAGCUGACAGUCCUGCUUAGAGCCCUUAAAAAGACUUGAAAGUUCACUGGGACUCAGUUUACCUUAAUGCCUUAGCAGAAGAUAA	1.07
UUCUACUUUCAUUUUGUAUUUCUGGUCUGUGAAAAUGAUUUAAUAAAGGGAACUGACUUUGGAAACCUGUCCUCAUGCUUUCUUUGUAGCCUUGGUGUGUUGCUCCCACU	1.22
UACUUAUGUAGUUGGUGAGGUCUUCUCAAAAGUAUCUACCUUUGUUAGAUAAUAACAAGUGAUUAAGAAAGGGGAGAUAUGGUUUUAUACUCAUAACAAUUUCCUGUGCC	0.373
GAAGACUUUCUCCACUCUGACCAGAUUUAUAAAAUUUCUCCUUUCAUAGAUUUAGUCAGAAGCUGUUUUACUCUCUUAUCUUACAUUCUAUCUAGCUUCCAUAAUUUAUA	0.465
AGACAGGAUUCAGGGCAGUGCUCCGAAGCUGUGUGCUCACCUGGUUGGCUCAUCAAACCUGGCAACCCUGUGGCCUGUCUGCCGGAGCUGACUGGAUCCACUCAUCAAUU	0.219
GACCAUACUGCUUACGUCUUAGCCAUUCCGUCCUGCUCCCCAGCUCACUCUCUGAAGCACACAUCAUUGGCUUUCCUAUUUUUCUGUUCAUUUUUUAAUUGAGCAAAUGU	0.473
GGCAUGAAGUGAACACAAAUUCUGCAAAGAAUUUUUUUGAUAUUGGCAAUAAUCAACAAUCUUCCAGAUUUGCACAAAAAGAUCUUGAAAUUUGAUGCAUAACUUUUAAG	0.78
UAACCUCACCUUCCCUGGCUCAUCUUGGCCUUGGGGAGUUGCCUUUAGGCUUGAGUCCUCAAGCCUCUCCUUUUCGUCCAUAAUAAAAUGUUUAAGUUAUUAAGAUCCUU	0.226

Sample 6 — method: universal PBM; form: double-stranded DNA, one strand shown; medium: in vitro; concentration: not given; reading: higher = stronger binding
Target: Sal-like protein 4, full length isoform B (SALL4, Homo sapiens, UniProt Q9UJQ4-2, residues 1-616)
Setting: 8-mer, flanks averaged, mean of replicates
Residues (chain): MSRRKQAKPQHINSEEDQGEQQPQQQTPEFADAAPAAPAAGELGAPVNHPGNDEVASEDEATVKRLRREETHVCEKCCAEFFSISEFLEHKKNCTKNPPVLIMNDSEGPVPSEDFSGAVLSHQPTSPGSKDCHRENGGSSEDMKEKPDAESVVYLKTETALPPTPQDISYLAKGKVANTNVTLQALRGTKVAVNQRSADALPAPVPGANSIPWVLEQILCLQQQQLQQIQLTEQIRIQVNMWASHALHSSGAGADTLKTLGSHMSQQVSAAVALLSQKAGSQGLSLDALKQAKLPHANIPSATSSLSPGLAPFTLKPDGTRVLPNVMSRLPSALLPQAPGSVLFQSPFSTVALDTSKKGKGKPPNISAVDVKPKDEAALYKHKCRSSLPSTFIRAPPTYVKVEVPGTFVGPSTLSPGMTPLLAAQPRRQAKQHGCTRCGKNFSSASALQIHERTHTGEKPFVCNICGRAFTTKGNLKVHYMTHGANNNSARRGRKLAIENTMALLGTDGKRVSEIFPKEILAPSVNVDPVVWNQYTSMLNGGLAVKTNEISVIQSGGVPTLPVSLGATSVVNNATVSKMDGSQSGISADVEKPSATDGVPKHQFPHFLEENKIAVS
Sequence	E-score
AATCTGGG	-0.042
AGCAAATA	0.267
ATCCGTGC	0.0207
GAGTGAGC	-0.15
TGATCCCA	-0.0979
ATCTCTTC	0.12
CCGCTTTC	-0.211
ATGGTCGG	-0.0762
